Results gathered from unrelated publications.
Each line is one published result; not all experiments were run side by side. Numbers after ± are the reported error.

SMILES | test | test system | conditions | endpoint | result
COc1ccc([N+]#[C][Re]2(=[C]=O)(=[C]=O)(=[C]=O)[N]3C(C)=CC=c4ccc5c(c43)[N]2C(C)=CC=5)cc1.O=S(=O)([O-])C(F)(F)F | – | PBS, up to 1% DMSO | pH 7.4, air-equilibrated | emission maximum | 506 nm
C=Cc1c(C)c2cc3nc(c(CC(=O)O)c4[nH]c(cc5nc(cc1[nH]2)C(C)=C5CC)c(C)c4C(=O)O)[C@@H](CCC(=O)NCCCC[C@H](NC(C)=O)C(=O)N[C@@H](Cc1ccccc1)C(=O)N[C@@H](Cc1ccccc1)C(=O)N[C@H](C(=O)N[C@@H](CC(C)C)C(=O)N[C@@H](CCCCN)C(=O)N[C@@H](CO)C(=O)NCC(=O)N[C@@H](CCC(N)=O)C(=O)NCC(=O)N[C@@H](Cc1ccc(O)cc1)C(=O)N[C@@H](CCCNC(=N)N)C(=O)N[C@@H](Cc1c[nH]c2ccccc12)C(=O)N[C@@H](CC(=O)O)C(=O)N[C@@H](CO)C(=O)N[C@@H](Cc1ccc(O)cc1)C(=O)N[C@@H](CCCNC(=N)N)C(=O)N[C@@H](Cc1c[nH]c2ccccc12)C(=O)N[C@@H](Cc1c[nH]cn1)C(=O)N1CCC[C@H]1C(=O)N[C@@H](CO)C(=O)N[C@@H](CS)C(=O)N[C@@H](C)C(=O)N[C@@H](CS)C(=O)NCC(=O)NCC(=O)N[C@@H](CO)C(=O)N[C@@H](CCCCN)C(N)=O)C(C)C)[C@@H]3C | CCK-8 | 4T1, mouse | 1 to 200 µM, 24 h | cytotoxicity | not toxic
CC(C)C[C@H](NC(=O)[C@H](CCCCN)NC(=O)[C@H](CCC(=O)O)NC(=O)[C@H](C)NC(=O)[C@@H](NC(=O)[C@H](CCCCN)NC(=O)[C@H](CC(=O)O)NC(=O)[C@H](Cc1ccc(O)cc1)NC(=O)[C@H](Cc1ccccc1)NC(=O)[C@H](C)NC(=O)[C@H](CCCCN)NC(=O)[C@H](CC(C)C)NC(=O)[C@H](Cc1c[nH]c2ccccc12)NC(=O)[C@@H](N)CC(=O)O)C(C)C)C(=O)N[C@@H](CCCCN)C(=O)N[C@@H](CCC(=O)O)C(=O)N[C@@H](C)C(=O)N[C@@H](Cc1ccccc1)C(=O)N1CCC[C@H]1C(=O)N[C@@H](CC(=O)O)C(=O)N[C@@H](Cc1c[nH]c2ccccc12)C(=O)N[C@@H](C)C(=O)N[C@@H](CCCCN)C(=O)N[C@@H](C)C(=O)N[C@@H](C)C(=O)N[C@@H](Cc1ccc(O)cc1)C(=O)N[C@@H](CC(=O)O)C(=O)N[C@@H](CCCCN)C(=O)N[C@@H](C)C(=O)N[C@@H](C)C(=O)N[C@@H](CCC(=O)O)C(=O)N[C@@H](CCCCN)C(=O)N[C@@H](C)C(=O)N[C@@H](CCCCN)C(=O)N[C@@H](CCC(=O)O)C(=O)N[C@@H](C)C(=O)N[C@@H](C)C(=O)O | – | cynomolgus monkey male, plasma | intravenous infusion, 8 mg/kg every other day, day 27 | volume of distribution at steady state | 0.052 L/kg
C/C=C/C=C/C/C=C/CCCCCCCc1cccc(O)c1O | – | female Kunming mice, tumour-bearing, tumor | intravenous, 10 mg/kg, 12 h | tissue concentration | 18400 ± 1340 ng/g
[11CH3]Sc1ccc(C(=O)C2CCN(C3Cc4ccccc4CC3O)CC2)cc1 (single isomer, unassigned; (-)) | PET imaging | cynomolgus monkey, striatum | 120 min | decrease from peak uptake | 54%
CC(C)C[C@@H]1NC(=O)[C@@H](Cc2ccccc2)NC(=O)[C@H](CCN)NC(=O)[C@@H](NC(=O)[C@H](CN)NC(=O)[C@@H](NC(=O)CC(CN)Cc2ccccc2)[C@@H](C)O)CCNC(=O)[C@H]([C@@H](C)O)NC(=O)[C@H](CCN)NC(=O)[C@H](CCN)NC1=O (some centres unmarked) | LC-MS/MS | CD-1 mouse, kidney homogenate | subcutaneous, 17.2 mg/kg single dose, 4 to 16 h | kidney AUC(4-16 h) | 847 µg·h/g
CCN1CCCC1CNC(=O)c1cc(Br)cc(OC)c1O[11CH3] (centres unmarked) | multiple-injection PET | rhesus monkey, brain, regional mean | – | K1 | 0.54 ± 0.1 mL/cm³/min
CN[C@](C)(C[18F])C(=O)O | – | SCID mouse U87 xenograft, brain | 120 min, post injection | tissue uptake | 0.3 ± 0.1 %ID/g
COC(=O)C[C@](O)(CCCC(C)(C)OC(C)=O)C(=O)O[C@@H]1C(OC)=C[C@]23CCCN2CCc2cc4c(cc2[C@H]13)OCO4 | – | CD1 mouse, bone marrow | oral, 1 mg/kg, 24 h, below quantification limit 1.00 ng/mL | tissue concentration | not detected
CC[C@H](C)[C@H](NC(=O)[C@H](CC(=O)O)NC(=O)[C@H](CO)NC(=O)[C@H](CCC(N)=O)NC(=O)[C@H](C)NC(=O)[C@H](CC(=O)O)NC(=O)[C@H](CCC(=O)O)NC(=O)[C@H](Cc1c[nH]cn1)NC(=O)[C@H](Cc1ccc(O)cc1)NC(=O)[C@H](C)NC(=O)[C@H](CC(=O)O)NC(=O)[C@H](CCC(=O)O)NC(=O)[C@H](Cc1c[nH]cn1)NC(=O)[C@H](Cc1ccc(O)cc1)NC(=O)[C@H](C)NC(=O)[C@H](CC(=O)O)NC(=O)[C@H](CCC(=O)O)NC(=O)[C@H](Cc1c[nH]cn1)NC(=O)[C@H](Cc1ccc(O)cc1)NC(=O)[C@H](C)NC(=O)[C@H](CC(=O)O)NC(=O)[C@H](CCC(=O)O)NC(=O)[C@H](Cc1c[nH]cn1)NC(=O)[C@H](Cc1ccc(O)cc1)NC(=O)[C@H](C)NC(=O)[C@H](CC(=O)O)NC(=O)[C@H](CCC(=O)O)NC(=O)[C@H](Cc1c[nH]cn1)NC(=O)[C@@H](N)Cc1ccc(O)cc1)C(=O)N[C@H](C(=O)N[C@@H](C)C(=O)N[C@@H](Cc1c[nH]cn1)C(=O)N[C@@H](CC(C)C)C(=O)N[C@@H](CC(C)C)C(=O)O)C(C)C | – | mouse SN model, blood | dose not given | EO share of white cells | 2.4 ± 0.6%
CSCC[C@@H]1NC(=O)[C@@H]2CSSC[C@H](NC(=O)[C@H](CO)NC(=O)[C@H](C)N)C(=O)N[C@@H](CCCNC(=N)N)C(=O)N[C@@H]([C@@H](C)O)C(=O)N3CCC[C@H]3C(=O)N[C@@H](CCCCN)C(=O)N[C@@H](CC(=O)O)C(=O)N[C@H]3CSSC[C@H](NC(=O)[C@H](CCCCN)NC(=O)[C@H](CCCNC(=N)N)NC(=O)[C@H](CC(N)=O)NC1=O)C(=O)N[C@@H](CCCCN)C(=O)N[C@H]1CSSC[C@H](NC(=O)[C@@H]4CCCN4C(=O)[C@H](CC(=O)O)NC(=O)[C@H](C)NC3=O)C(=O)N[C@@H](C)C(=O)N[C@@H](CCCCN)C(=O)N[C@@H](CCC(=O)O)C(=O)N[C@@H]([C@@H](C)O)C(=O)NCC(=O)N[C@@H](CSSC[C@@H](C(N)=O)NC(=O)[C@H](CCCNC(=N)N)NC(=O)[C@H](CC(N)=O)NC1=O)C(=O)N1CCC[C@H]1C(=O)N[C@@H](Cc1ccc(O)cc1)C(=O)NCC(=O)N[C@@H](CCCCN)C(=O)N2 | – | DA rat, pristane-induced arthritis, serum | subcutaneous, single 0.1 mg/kg at onset, end of 21-day trial | ALT | 52.2 U/L

Some of these lines once more:
SMILES | test | test system | conditions | endpoint | result
CSCC[C@@H]1NC(=O)[C@@H]2CSSC[C@H](NC(=O)[C@H](CO)NC(=O)[C@H](C)N)C(=O)N[C@@H](CCCNC(=N)N)C(=O)N[C@@H]([C@@H](C)O)C(=O)N3CCC[C@H]3C(=O)N[C@@H](CCCCN)C(=O)N[C@@H](CC(=O)O)C(=O)N[C@H]3CSSC[C@H](NC(=O)[C@H](CCCCN)NC(=O)[C@H](CCCNC(=N)N)NC(=O)[C@H](CC(N)=O)NC1=O)C(=O)N[C@@H](CCCCN)C(=O)N[C@H]1CSSC[C@H](NC(=O)[C@@H]4CCCN4C(=O)[C@H](CC(=O)O)NC(=O)[C@H](C)NC3=O)C(=O)N[C@@H](C)C(=O)N[C@@H](CCCCN)C(=O)N[C@@H](CCC(=O)O)C(=O)N[C@@H]([C@@H](C)O)C(=O)NCC(=O)N[C@@H](CSSC[C@@H](C(N)=O)NC(=O)[C@H](CCCNC(=N)N)NC(=O)[C@H](CC(N)=O)NC1=O)C(=O)N1CCC[C@H]1C(=O)N[C@@H](Cc1ccc(O)cc1)C(=O)NCC(=O)N[C@@H](CCCCN)C(=O)N2 | – | DA rat, pristane-induced arthritis, serum | subcutaneous, single 0.1 mg/kg at onset, end of 21-day trial | ALT | 52.2 U/L
